Measured values of several laboratories.
Numbered parts are unrelated; each lists some results of a single study. Positions count from the first letter of the parent shown.

Block 1 — target: CCNA2, cyclin fold, Cln2 fusion (human); technique: yeast growth competition, sequencing; sample: yeast; notes: strong parent motif; reference: not given; reading: higher = stronger binding
Starting sequence: SGO1 docking peptide (human); PLAKRALKYTDEK
Under “normalised enrichment score”, `L2A` is recorded as 4.79.
For `K13A`, “normalised enrichment score” read 3.96.
For `R5A`, “normalised enrichment score” read 0.178.
`E12A`: “normalised enrichment score” 3.09.
`K4A` — result for “normalised enrichment score”: 1.38.
Under “normalised enrichment score”, `D11A` is recorded as 2.39.

Block 2 — target: TEF, bZIP domain (human); technique: DHFR protein complementation; sample: yeast; reference: wild-type JUN-FOS pair; reading: higher = stronger binding
Notes: single substitutions, most at no-binding floor
Starting sequence: JUN, bZIP domain (human); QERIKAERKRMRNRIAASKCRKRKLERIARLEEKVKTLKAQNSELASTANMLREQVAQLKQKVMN; partner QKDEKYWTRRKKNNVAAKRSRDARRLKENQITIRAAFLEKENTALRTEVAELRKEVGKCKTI
`A29L` has a binding fitness of -1.48 natural log.
For `E32L`, the binding fitness was -1.3 natural log.
The binding fitness of `R53V` is reported as -1.16 natural log.
`S47D` has a binding fitness of -1.44 natural log.
With `Q41N` the binding fitness was -1.42 natural log.
The binding fitness of `S47V` is reported as -1.39 natural log.
`A40K` gave a binding fitness of -1.45 natural log.
The binding fitness of `T37V` is reported as -1.29 natural log.
`L31H` has a binding fitness of -1.55 natural log.
For `T37D`, the binding fitness was -1.37 natural log.
For `Q41V`, the binding fitness was -1.53 natural log.
The binding fitness of `L31E` is reported as -1.51 natural log.
`A49R` gave a binding fitness of -1.24 natural log.
With `L45I` the binding fitness was -1.56 natural log.
`I28W` gave a binding fitness of -1.51 natural log.
`L52P` gave a binding fitness of -1.48 natural log.
With `A29V` the binding fitness was -1.27 natural log.

Block 3 — technique: DHFR PCA, deep sequencing; sample: yeast; with: (+)-ABA 0 µM; reference: wild-type fitted maximum; reading: higher = stronger binding
Target: ABI1, truncated, D143A, DHFR fusion (Arabidopsis thaliana)
Notes: methotrexate growth selection, single substitutions
Starting sequence: PYL1, truncated, DHFR fusion (Arabidopsis thaliana); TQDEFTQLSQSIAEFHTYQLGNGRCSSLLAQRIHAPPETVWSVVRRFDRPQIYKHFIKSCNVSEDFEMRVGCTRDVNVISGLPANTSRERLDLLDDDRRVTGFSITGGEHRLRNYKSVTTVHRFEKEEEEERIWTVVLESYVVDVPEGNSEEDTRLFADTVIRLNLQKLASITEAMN
For `E4S`, “relative binding score” read 6.37%.
`E151W`: “relative binding score” 3.66%.
`S63G` — result for “relative binding score”: 38.1%.
`G102Y`: “relative binding score” -4.85%.
`W134D` — result for “relative binding score”: 10.6%.
`E125N` — result for “relative binding score”: 19.4%.
`I79K` — result for “relative binding score”: 5.33%.
`D144T` — result for “relative binding score”: -0.335%.
Under “relative binding score”, `F5H` is recorded as 7.58%.
`R132A` — result for “relative binding score”: 41%.
`P83F`: “relative binding score” 4.95%.
Under “relative binding score”, `F157N` is recorded as 1.11%.
Under “relative binding score”, `R69T` is recorded as 17.4%.
For `L166N`, “relative binding score” read -6.05%.
For `L164P`, “relative binding score” read 9.93%.
`S11I`: “relative binding score” 20.6%.
For `Q31D`, “relative binding score” read -1.58%.
`F66L` — result for “relative binding score”: -1.5%.
`H34Y` — result for “relative binding score”: 28.7%.
`E129I`: “relative binding score” 4.56%.
Under “relative binding score”, `S171P` is recorded as 2.63%.
Under “relative binding score”, `G23A` is recorded as 3.71%.
`E151F` — result for “relative binding score”: -7.07%.
Under “relative binding score”, `D65R` is recorded as 7.33%.
For `L8C`, “relative binding score” read -2.84%.

Block 4 — technique: RNA Bind-n-Seq; molecule type: RNA; sample: in vitro; tested at: 365 nM; reference: no-protein control; reading: higher = stronger binding
Target: RNA binding protein fox-1 homolog 2, RRM domain, GST-SBP tag (RBFOX2, Homo sapiens, UniProt O43251-10, residues 100-194)
Notes: natural RNA segment, single round, ends assumed
Target sequence (chain): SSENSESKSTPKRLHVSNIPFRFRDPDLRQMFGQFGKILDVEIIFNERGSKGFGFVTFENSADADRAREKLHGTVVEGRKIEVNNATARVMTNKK
`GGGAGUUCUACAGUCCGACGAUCUCCAGCCUCUGGCUUGAGAACUUACUAAAGGCACUUCCUUCCUGUUAAACCCCUGUUAACUCUCCAUAAAUUUGGUGAUUCUCUGCUAGGCCUAAGAUUUUGAGUUAACAUGGAAUUCUCGGGUGCCAA` — result for “RBNS enrichment (R)”: 0.451.
`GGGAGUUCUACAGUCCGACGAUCAAAAAUGAAGCAACACUUUUUCUGUUUAAUGAGUAUUAUGAGUUGGACAGCAAAUUUUUGUCUUAAUAAAAUGUUUUUCGUAAUCAUGCAGGUCAAGUGUAGGGUUGUCAUGGAAUUCUCGGGUGCCAA` — result for “RBNS enrichment (R)”: 0.431.
For `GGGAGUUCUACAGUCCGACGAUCGCCAAUAGUGGCUGAGUUUCGCACUUGAUUUUCAAUAUUUUAUAGUAAGAAAUGACAAACUGCUUUGUUUCAUUUCAUAAACAAACUCUGCAUUUAGAUAACUAUUAAAGUGGAAUUCUCGGGUGCCAA`, “RBNS enrichment (R)” read 0.845.
For `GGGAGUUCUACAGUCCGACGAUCGGCGGCUCUUUCUACAGCUGAACUCCUCCUCAGUUGAGUUUUCAGUUUCUGGCUUGCUUCUCCCUUUGUAUAGGGGAGAACAGAGAAGAGGUUUAUGCUGAGGGGGGGUGUGGAAUUCUCGGGUGCCAA`, “RBNS enrichment (R)” read 7.39.
For `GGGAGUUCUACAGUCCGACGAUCCCAGGCCUGACUGGGGUAAGAAACAUGCCUCCACUUUACAGAGGUAGCUAUGGGUUUGGAACACUGGACUUGACUAUGGGGUGCUGGGAGUCAAGUCUCAGCUUUACCACUGGAAUUCUCGGGUGCCAA`, “RBNS enrichment (R)” read 0.321.
Under “RBNS enrichment (R)”, `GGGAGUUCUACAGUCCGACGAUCAGUGGUGGCCCUGGGGGGCCAUUCGAUUCGCCUCAGUUGCUGCUGUAAUAAAAGUCUACUUUUUGCUAAAAGCGUCGUGUGUUCGCGCCUUUCCCGCCAGGGGGAGCGGGUGGAAUUCUCGGGUGCCAA` is recorded as 0.346.
`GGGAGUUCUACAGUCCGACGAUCCCUUCUCCCGGUCUGCUGAUCACUCUUUCAUGCCUGUGUAUCCAGGGUGCUCUGUUUCCCCACCGUUCCCAGGUGUACGAGGCAGAGGGCCGGGACAGCUUUCCUCUCAGUGGAAUUCUCGGGUGCCAA`: “RBNS enrichment (R)” 0.271.
For `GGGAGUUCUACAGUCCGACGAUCUUUACAUUUGAAUGUUCACAGUUUUCUCUCAGAGAAGUGCCAGACAUUGUUUUGUGCUUUUGAAGAAGUUUUAUUUAUAUGCAUUAUUUUUAUUGUUUUUACUUUGACUGUGGAAUUCUCGGGUGCCAA`, “RBNS enrichment (R)” read 0.439.
Under “RBNS enrichment (R)”, `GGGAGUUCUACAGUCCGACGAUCGGCCAAGUGGAUUUUAAGAAGUGAAACUUUUUUUUUUUUUUUUUUUUUUUGAGAUGGGGUUUCACUCUCUCACCCAGACUGGAGUACAGUGGGGAGAUCUCAGCUCACUGUGGAAUUCUCGGGUGCCAA` is recorded as 0.702.
Under “RBNS enrichment (R)”, `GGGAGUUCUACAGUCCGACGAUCCUGUUCCGCGUGGUUCCCGCCAAACCUCCCUCGGUCGCCGUGUUCUCCGCAAGCCUCCUGCAGCGCCCGCCUGCCAAUGUGAGGCUGGCACCAGGCUGCAGCCUCCCCAAUGGAAUUCUCGGGUGCCAA` is recorded as 0.342.
`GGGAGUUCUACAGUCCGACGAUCAACUUUGCAAAGACCUUCGUCUUUGAGAAGACGGUAGCUUCUGCAGUUAGGAGGUGCAGACACUUGCUCUCCUAUGUAGUUCUCAGAUGCGUAAAGCAGAACAGCCUCCCUGGAAUUCUCGGGUGCCAA` — result for “RBNS enrichment (R)”: 0.195.
`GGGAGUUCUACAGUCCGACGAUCGAACAAGAUACAUUGCAGUGUCAUUUAUAGAUCCCUAAGUUAUUUACUUUUCAUUGAAUUGAAAUUUAUUUUGGAUGAAUGACUGGCAUGAACACGUCUUUGAAGUUGUGUGGAAUUCUCGGGUGCCAA` — result for “RBNS enrichment (R)”: 0.423.

Block 5 — technique: two-hybrid; reference: out of 4 tests; reading: higher = firmer interaction
Partner: ARF6 790-935 (Arabidopsis thaliana, UniProt Q9ZTX8)
B1: IAA33 (Arabidopsis thaliana, UniProt Q9FKM7); chain MNSFEPQSQDSLQRRFHQDNSTTQQPRDTTTPFIPKPASKNHNNSNSSSGAAGRSFQGFGLNVEDDLVSSVVPPVTVVLEGRSICQRISLDKHGSYQSLASALRQMFVDGADSTDDLDLSNAIPGHLIAYEDMENDLLLAGDLTWKDFVRVAKRIRILPVKGNTRQVKRNE
B2: IAA32 (Arabidopsis thaliana, UniProt Q8RYC6); chain MDPNTPADFFKGSSKFHTYYSQTKKGGGVIDLGLSLRTIQHETYLPPARMIGLDGYGELIDWSQPSYNSITQLKSEDTGHQRLAQGYYNNEGESRGKYAYVKVNLDGLVVGRKVCLVDQGAYATLALQLNDMFGMQTVSGLRLFQTESEFSLVYRDREGIWRNVGDVPWKEFVESVDRMRIARRNDALLPF
B3: ARF1 538-665 (Arabidopsis thaliana, UniProt Q8L7G0); chain SRQIRSCTKVHMQGSAVGRAIDLTRSECYEDLFKKLEEMFDIKGELLESTKKWQVVYTDDEDDMMMVGDDPWNEFCGMVRKIFIYTPEEVKKLSPKNKLAVNARMQLKADAEENGNTEGRSSSMAGSR
B4: IAA34 (Arabidopsis thaliana, UniProt Q9C5X0); chain MYCSDPPHPLHLVASDKQQKDHKLILSWKKPTMDSDPLGVFPNSPKYHPYYSQTTEFGGVIDLGLSLRTIQHEIYHSSGQRYCSNEGYRRKWGYVKVTMDGLVVGRKVCVLDHGSYSTLAHQLEDMFGMQSVSGLRLFQMESEFCLVYRDEEGLWRNAGDVPWNEFIESVERLRITRRNDAVLPF
B5: ARF5 788-902 (Arabidopsis thaliana, UniProt P93024); chain ATPRVRTYTKVQKTGSVGRSIDVTSFKDYEELKSAIECMFGLEGLLTHPQSSGWKLVYVDYESDVLLVGDDPWEEFVGCVRCIRILSPTEVQQMSEEGMKLLNSAGINDLKTSVS
B6: ARF4 660-788 (Arabidopsis thaliana, UniProt Q9ZTX9); chain QSSSKRICTKVHKQGSQVGRAIDLSRLNGYDDLLMELERLFNMEGLLRDPEKGWRILYTDSENDMMVVGDDPWHDFCNVVWKIHLYTKEEVENANDDNKSCLEQAALMMEASKSSSVSQPDSSPTITRV
B7: ARF2 727-859 (Arabidopsis thaliana, UniProt Q94JM3); chain TKTNSSRSCTKVHKQGIALGRSVDLSKFQNYEELVAELDRLFEFNGELMAPKKDWLIVYTDEENDMMLVGDDPWQEFCCMVRKIFIYTKEEVRKMNPGTLSCRSEEEAVVGEGSDAKDAKSASNPSLSSAGNS
Target sequence (chain): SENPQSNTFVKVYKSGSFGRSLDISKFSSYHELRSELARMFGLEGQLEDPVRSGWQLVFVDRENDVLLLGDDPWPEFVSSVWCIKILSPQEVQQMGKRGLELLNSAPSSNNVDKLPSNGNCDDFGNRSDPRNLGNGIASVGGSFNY
The positive tests of `B1 (IAA33)` is reported as 3.
With `B2 (IAA32)` the positive tests was 3.
The positive tests of `B3 (ARF1 538-665)` is reported as 0.
`B4 (IAA34)` gave a positive tests of 3.
`B5 (ARF5 788-902)` has a positive tests of 1.
With `B6 (ARF4 660-788)` the positive tests was 0.
The positive tests of `B7 (ARF2 727-859)` is reported as 1.

Some of these lines once more (block 3):
Under “relative binding score”, `F5H` is recorded as 7.58%.
`R132A` — result for “relative binding score”: 41%.
`P83F`: “relative binding score” 4.95%.
Under “relative binding score”, `F157N` is recorded as 1.11%.
